Results from different studies.
± marks the error that the study gave.
Organism: Plasmodium falciparum

CC1CCN(Cc2cc(/C=C/C(=O)c3ccc(F)cc3)ccc2O)CC1
selectivity index (3D7; reference: WRL68 IC50 over P. falciparum EC50): 1.74

CNC(=O)[C@@H]1Cc2c([nH]c3ccccc23)[C@@H](c2ccc(Cl)cc2Cl)N1
IPP level reduction (schizont stage; 1 µM, 4 h; reference: untreated): > 90%

CC[C@H](C)[C@H](NC(=O)[C@@H](NC(=O)[C@H](Cc1ccc(O)cc1)NC(=O)[C@H](CCCCN)NC(=O)[C@H](CCCCN)NC(=O)[C@H](CC(C)C)NC(=O)[C@H](CC(=O)O)NC(=O)[C@H](Cc1ccc(O)cc1)NC(=O)[C@H](CCC(N)=O)NC(=O)[C@H](CCCCN)NC(=O)[C@@H](NC(=O)[C@H](Cc1ccccc1)NC(=O)[C@H](CCCCN)NC(=O)[C@H](CCCCN)NC(=O)[C@H](Cc1c[nH]c2ccccc12)NC(=O)[C@H](CCCCN)NC(=O)[C@H](CCSC)NC(=O)[C@H](CCCNC(=N)N)NC(=O)[C@H](CCCNC(=N)N)NC(=O)[C@H](CC(N)=O)NC(=O)[C@H](CCC(N)=O)NC(=O)[C@H](Cc1ccccc1)NC(=O)[C@H](Cc1c[nH]c2ccccc12)NC(=O)[C@@H](NC(=O)[C@H](CCCCN)NC(=O)[C@@H](NC(=O)[C@H](CCC(N)=O)NC(=O)[C@@H](N)CCCNC(=N)N)[C@@H](C)CC)[C@@H](C)CC)[C@@H](C)CC)[C@@H](C)CC)C(=O)O
TUNEL-positive parasites (90 µM, 16 h): ~90%

CCCCNc1c2ccc(Cl)cc2nc2ccc(OC)cc12
selectivity index (NIH3T3, 3D7; reference: CC50 over IC50): > 0.75

CCN(CC)c1ccc2nc3c4ccccc4/c(=N/c4ccncc4)cc-3oc2c1
remaining growth (NF54; 7.81 ng/mL, 6 h, rings, trophozoites, schizonts; reference: untreated): 100%

C[OH+][Cu-2]12[O]C(c3cn(-c4ccccc4)nc3-c3ccc(F)cc3)=N[N+]1=C(C)c1c(cc(C)oc1=O)[O]2 (centres unmarked)
parasitaemia suppression (3D7; 100 µg/mL, 72 h): 100%

CCC1=C(C)C(c2ccc[nH]2)=NC1=CNC1CCCCCC1
IC50 (parasite growth, SYBR Green I fluorescence; D6, chloroquine-sensitive): 150 nM

CCOC(=O)c1cn(-c2nc(C)n[nH]2)nn1
inhibition (parasite growth; NF54; 1 µM, gametocyte): 49.3%

CCCCN1C(=O)c2ccc3c4c(ccc(c24)C1=O)C(=O)N(CCNc1c2ccc(Cl)cc2nc2ccc(OC)cc12)C3=O
inhibition (parasite growth, SYBR Green; 3D7; 50 nM, blood stage): ~80%

Cc1ccc(CNC(=O)[C@@H](NC(=O)[C@H](CCc2ccccc2)NC(=O)[C@H](CCc2ccccc2)NCc2cnccn2)C(C)C)cc1
selectivity ratio (D10; 72 h; reference: HFF EC50 over P. falciparum EC50): > 226

CCc1c(-c2ccc[nH]2)c[nH]c1C=NC12CC3CC(CC(C3)C1)C2
IC50 (parasite growth, SYBR Green I fluorescence; D6, chloroquine-sensitive): > 2500 nM

Cc1ccc(CNC(=O)[C@@H](NC(=O)[C@H](CCc2ccccc2)NC(=O)[C@H](CCc2ccccc2)N(C)Cc2cnccn2)C(C)C)cc1
selectivity ratio (D10; 72 h; reference: HFF EC50 over P. falciparum EC50): 587

C[OH+][Cu-2]12[O]C(c3cn(-c4ccccc4)nc3-c3ccccc3)=N[N+]1=C(C)c1c(cc(C)oc1=O)[O]2 (centres unmarked)
parasitaemia suppression (3D7; 12.5 µg/mL, 72 h): 100%

Cc1ccc(NCC(=O)Nc2ccc(F)c(Cl)c2)cc1S(=O)(=O)N1CC2CC1CO2 (centres unmarked)
EC50 (parasite growth; 3D7; blood stage): 640 nM

Clc1ccc2c(c1)nc(N1CCNCC1)n2CC1CCCCC1
antiplasmodial activity (pLDH; NF54; concentration not given, 48 h): inactive

O=C(CCc1ccc[nH]1)NCC(=O)NC12CC3CC(CC(C3)C1)C2
IC50 (parasite growth, SYBR Green I fluorescence; D6, chloroquine-sensitive): > 2500 nM

COc1cc(O)c(-c2cc(-c3cc(-c4c(O)cc(OC)c5c4C[C@@H](C)N[C@@H]5C)c4cc(C)cc(OC)c4c3O)c(O)c3c(OC)cc(C)cc23)c2c1[C@@H](C)N[C@H](C)C2
inhibition (gametocyte viability, luciferase reporter; NF54-Pfs16-GFP-Luc, late stage IV/V; 5 µM, 48 h): > 70%

CN(C)c1ncnc2c1c(-c1ccc(Oc3ccccc3)cc1)cn2C1CCCC1
schizont rupture (FVO; invasion IC50): no effect

CC[C@H](C)[C@@H]1NC(=O)[C@H](CCCCN)NC(=O)[C@H](CCCCN)NC(=O)[C@H](Cc2ccc(O)cc2)NC(=O)[C@H](CC(C)C)NC(=O)[C@@H]2CCCN2C(=O)[C@H](C)NC(=O)CNC(=O)CNC(=O)[C@H](CO)NC(=O)CNC(=O)CNC(=O)[C@H](CO)NC(=O)[C@H](CCC(=O)O)NC(=O)[C@H](CC(C)C)NC(=O)[C@H](CC(C)C)NC(=O)[C@H](CCCCN)NC(=O)[C@H](CCCCN)NC(=O)[C@H]([C@@H](C)CC)NC(=O)[C@H]([C@@H](C)CC)NC(=O)[C@H](CCCCN)NC(=O)[C@H](CCCCN)NC(=O)[C@H](Cc2ccc(O)cc2)NC(=O)[C@H](CC(C)C)NC(=O)[C@@H]2CCCN2C(=O)[C@H](C)NC(=O)CNC(=O)[C@@H]2CSSC[C@H](NC(=O)[C@H](CC(C)C)NC(=O)[C@H](CCCCN)NC(=O)[C@H](CCCCN)NC(=O)[C@H]([C@@H](C)CC)NC1=O)C(=O)N[C@@H](CCC(=O)O)C(=O)N[C@@H](CO)C(=O)NCC(=O)N2
selectivity index (3D7; 5 mg/mL Albumax II; reference: RBC HC10 over P. falciparum IC50): 3.6 ± 0.4

CN1CCC[C@@H]1C(=O)N[C@@H](Cc1ccc(-c2ccccc2)cc1)B(O)O
residual parasitaemia (Pf3D7 0087/N9, SCID mouse; oral, 50 mg/kg, daily for 4 days): 0.14%

Clc1ccc(C2=CC(c3ccc[nH]3)=NC2=CNC2CCCCCC2)cc1
IC50 (parasite growth, SYBR Green I fluorescence; D6, chloroquine-sensitive): 963 nM

COc1cc2nc(N3CCCN(C)CC3)nc(SC3CCN(Cc4ccccc4)CC3)c2cc1OC
selectivity ratio (HepG2, 3D7; reference: HepG2 IC50 over Pf3D7 IC50): 6.7

CC[C@H](C)[C@@H]1NC(=O)[C@H](CCCCN)NC(=O)[C@H](CCCCN)NC(=O)[C@H](Cc2ccc(O)cc2)NC(=O)[C@H](CC(C)C)NC(=O)[C@@H]2CCCN2C(=O)[C@H](C)NC(=O)CNC(=O)CNC(=O)[C@H](CO)NC(=O)CNC(=O)CNC(=O)[C@H](CO)NC(=O)[C@H](CCC(=O)O)NC(=O)[C@H](CC(C)C)NC(=O)[C@H](CC(C)C)NC(=O)[C@H](CCCCN)NC(=O)[C@H](CCCCN)NC(=O)[C@H]([C@@H](C)CC)NC(=O)[C@H]([C@@H](C)CC)NC(=O)[C@H](CCCCN)NC(=O)[C@H](CCCCN)NC(=O)[C@H](Cc2ccc(O)cc2)NC(=O)[C@H](CC(C)C)NC(=O)[C@@H]2CCCN2C(=O)[C@H](C)NC(=O)CNC(=O)CNC(=O)[C@H](CO)NC(=O)CNC(=O)CNC(=O)[C@H](CO)NC(=O)[C@H](CCC(=O)O)NC(=O)[C@H](CC(C)C)NC(=O)[C@H](CC(C)C)NC(=O)[C@H](CCCCN)NC(=O)[C@H](CCCCN)NC(=O)[C@H]([C@@H](C)CC)NC1=O
selectivity index (3D7; 5 mg/mL Albumax II; reference: RBC HC10 over P. falciparum IC50): 11.7 ± 2.6

Cc1ccc(CNC(=O)[C@H](CC(C)C)NC(=O)[C@H](CCc2ccccc2)NC(=O)c2cnc(C)cn2)cc1
selectivity ratio (D10; 72 h; reference: HFF EC50 over P. falciparum EC50): 276

Cc1cc(N2CC[C@](C#N)(C3(C)CC3)C2=O)cc(C(=O)NCc2cc(F)cc(-c3cnn(C)c3)c2)n1
growth inhibition (SYBR Green I; 3D7; up to 2 µM, asexual blood stage): no inhibition

COc1cc(O)c(-c2cc(-c3cc(-c4c(O)cc5c(c4OC)[C@H](C)N[C@H](C)C5)c4cc(C)cc(OC)c4c3O)c(O)c3c(OC)cc(C)cc23)c2c1[C@H](C)N[C@H](C)C2
inhibition (gametocyte viability, luciferase reporter; NF54-Pfs16-GFP-Luc, early stage II/III; 5 µM, 48 h): > 70%

Cc1ccc(NCC(=O)N(C)c2ccc(F)c(Cl)c2)cc1S(=O)(=O)N1CCOCC1
EC50 (parasite growth; 3D7; blood stage): > 50000 nM

CC[C@H](C)[C@@H]1NC(=O)[C@H](CCCCN)NC(=O)[C@H](CCCCN)NC(=O)[C@H](Cc2ccc(O)cc2)NC(=O)[C@H](CC(C)C)NC(=O)[C@@H]2CCCN2C(=O)[C@H](C)NC(=O)CNC(=O)CNC(=O)[C@H](CO)NC(=O)CNC(=O)CNC(=O)[C@H](CO)NC(=O)[C@H](CCC(=O)O)NC(=O)[C@H](CC(C)C)NC(=O)[C@H](CC(C)C)NC(=O)[C@H](CCCCN)NC(=O)[C@H](CCCCN)NC(=O)[C@H]([C@@H](C)CC)NC(=O)[C@H]([C@@H](C)CC)NC(=O)[C@H](CCCCN)NC(=O)[C@H](CCCCN)NC(=O)[C@H](Cc2ccc(O)cc2)NC(=O)[C@H](CC(C)C)NC(=O)[C@@H]2CCCN2C(=O)[C@H](C)NC(=O)CNC(=O)[C@@H]2CSSC[C@H](NC(=O)[C@H](CC(C)C)NC(=O)[C@H](CCCCN)NC(=O)[C@H](CCCCN)NC(=O)[C@H]([C@@H](C)CC)NC1=O)C(=O)N[C@@H](CCC(N)=O)C(=O)N[C@@H](CC(N)=O)C(=O)NCC(=O)N2
selectivity index (3D7; 5 mg/mL Albumax II; reference: RBC HC10 over P. falciparum IC50): > 7

C[OH+][Cu-2]12[O]C(c3cn(-c4ccccc4)nc3-c3ccc(Cl)cc3)=N[N+]1=C(C)c1c(cc(C)oc1=O)[O]2 (centres unmarked)
parasitaemia suppression (3D7; 12.5 µg/mL, 72 h): 78.3%

COc1ccc2c(c1)C1CC(C)(N2)c2c(C)nc3ccc(OC)cc3c21 (centres unmarked)
IC50 (parasite growth, SYBR green I; 3D7): 225.5 ± 1.7 nM

C[OH+][Cu-2]12[O]C(c3cn(-c4ccccc4)nc3-c3ccc(C)cc3)=N[N+]1=C(C)c1c(cc(C)oc1=O)[O]2 (centres unmarked)
parasitaemia suppression (3D7; 100 µg/mL, 72 h): 100%

c1ccc(CCCNc2ncnc3cc(OCC4CCN(CCNc5ccnc6ccccc56)CC4)ccc23)cc1
parasites killed (NF54; concentration not given, 6 h, early ring stage, IC50 concentration): ≤ 50%

For quick reference, copied from above:
CC[C@H](C)[C@H](NC(=O)[C@@H](NC(=O)[C@H](Cc1ccc(O)cc1)NC(=O)[C@H](CCCCN)NC(=O)[C@H](CCCCN)NC(=O)[C@H](CC(C)C)NC(=O)[C@H](CC(=O)O)NC(=O)[C@H](Cc1ccc(O)cc1)NC(=O)[C@H](CCC(N)=O)NC(=O)[C@H](CCCCN)NC(=O)[C@@H](NC(=O)[C@H](Cc1ccccc1)NC(=O)[C@H](CCCCN)NC(=O)[C@H](CCCCN)NC(=O)[C@H](Cc1c[nH]c2ccccc12)NC(=O)[C@H](CCCCN)NC(=O)[C@H](CCSC)NC(=O)[C@H](CCCNC(=N)N)NC(=O)[C@H](CCCNC(=N)N)NC(=O)[C@H](CC(N)=O)NC(=O)[C@H](CCC(N)=O)NC(=O)[C@H](Cc1ccccc1)NC(=O)[C@H](Cc1c[nH]c2ccccc12)NC(=O)[C@@H](NC(=O)[C@H](CCCCN)NC(=O)[C@@H](NC(=O)[C@H](CCC(N)=O)NC(=O)[C@@H](N)CCCNC(=N)N)[C@@H](C)CC)[C@@H](C)CC)[C@@H](C)CC)[C@@H](C)CC)C(=O)O
TUNEL-positive parasites (90 µM, 16 h): ~90%

Clc1ccc(C2=CC(c3ccc[nH]3)=NC2=CNC2CCCCCC2)cc1
IC50 (parasite growth, SYBR Green I fluorescence; D6, chloroquine-sensitive): 963 nM

Cc1ccc(CNC(=O)[C@@H](NC(=O)[C@H](CCc2ccccc2)NC(=O)[C@H](CCc2ccccc2)NCc2cnccn2)C(C)C)cc1
selectivity ratio (D10; 72 h; reference: HFF EC50 over P. falciparum EC50): > 226

CCCCN1C(=O)c2ccc3c4c(ccc(c24)C1=O)C(=O)N(CCNc1c2ccc(Cl)cc2nc2ccc(OC)cc12)C3=O
inhibition (parasite growth, SYBR Green; 3D7; 50 nM, blood stage): ~80%
